Results collected from several papers.
Every numbered part comes from another study and shows a few of its results, in no order. Substitutions count along the parent as printed.
Chain of UniProt P49841 (whole entry, looked up): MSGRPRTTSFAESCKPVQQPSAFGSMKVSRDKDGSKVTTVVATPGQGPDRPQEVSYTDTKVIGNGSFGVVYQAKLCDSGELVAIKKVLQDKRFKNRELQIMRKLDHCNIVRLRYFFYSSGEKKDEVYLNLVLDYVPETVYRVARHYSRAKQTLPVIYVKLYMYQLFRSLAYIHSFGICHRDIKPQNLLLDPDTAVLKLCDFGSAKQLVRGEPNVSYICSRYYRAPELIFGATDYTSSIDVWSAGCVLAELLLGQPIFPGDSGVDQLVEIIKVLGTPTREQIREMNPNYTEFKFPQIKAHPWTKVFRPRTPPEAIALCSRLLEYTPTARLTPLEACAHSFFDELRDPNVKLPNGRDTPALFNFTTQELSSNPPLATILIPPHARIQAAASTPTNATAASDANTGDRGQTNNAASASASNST
Chain of UniProt Q9NQU5 (whole entry, looked up): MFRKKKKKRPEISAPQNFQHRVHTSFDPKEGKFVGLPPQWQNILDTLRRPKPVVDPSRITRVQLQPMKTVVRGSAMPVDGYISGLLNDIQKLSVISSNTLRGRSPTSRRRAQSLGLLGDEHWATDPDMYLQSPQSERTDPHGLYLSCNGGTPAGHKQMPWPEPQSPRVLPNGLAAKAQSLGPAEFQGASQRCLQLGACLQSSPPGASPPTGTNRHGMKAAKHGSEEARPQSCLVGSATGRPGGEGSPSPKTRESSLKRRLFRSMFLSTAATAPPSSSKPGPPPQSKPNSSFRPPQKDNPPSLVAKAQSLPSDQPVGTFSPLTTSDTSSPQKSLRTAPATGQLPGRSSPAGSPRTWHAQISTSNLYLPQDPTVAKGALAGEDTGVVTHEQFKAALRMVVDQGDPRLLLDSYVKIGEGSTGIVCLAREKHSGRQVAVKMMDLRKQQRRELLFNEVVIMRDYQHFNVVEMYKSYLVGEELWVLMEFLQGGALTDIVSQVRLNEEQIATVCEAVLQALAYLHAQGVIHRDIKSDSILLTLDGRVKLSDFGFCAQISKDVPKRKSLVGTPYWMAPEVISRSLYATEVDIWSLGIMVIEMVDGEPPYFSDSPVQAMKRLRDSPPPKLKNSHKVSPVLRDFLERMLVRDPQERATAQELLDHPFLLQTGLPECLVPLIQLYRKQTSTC
Chain of UniProt O60674 (whole entry, looked up): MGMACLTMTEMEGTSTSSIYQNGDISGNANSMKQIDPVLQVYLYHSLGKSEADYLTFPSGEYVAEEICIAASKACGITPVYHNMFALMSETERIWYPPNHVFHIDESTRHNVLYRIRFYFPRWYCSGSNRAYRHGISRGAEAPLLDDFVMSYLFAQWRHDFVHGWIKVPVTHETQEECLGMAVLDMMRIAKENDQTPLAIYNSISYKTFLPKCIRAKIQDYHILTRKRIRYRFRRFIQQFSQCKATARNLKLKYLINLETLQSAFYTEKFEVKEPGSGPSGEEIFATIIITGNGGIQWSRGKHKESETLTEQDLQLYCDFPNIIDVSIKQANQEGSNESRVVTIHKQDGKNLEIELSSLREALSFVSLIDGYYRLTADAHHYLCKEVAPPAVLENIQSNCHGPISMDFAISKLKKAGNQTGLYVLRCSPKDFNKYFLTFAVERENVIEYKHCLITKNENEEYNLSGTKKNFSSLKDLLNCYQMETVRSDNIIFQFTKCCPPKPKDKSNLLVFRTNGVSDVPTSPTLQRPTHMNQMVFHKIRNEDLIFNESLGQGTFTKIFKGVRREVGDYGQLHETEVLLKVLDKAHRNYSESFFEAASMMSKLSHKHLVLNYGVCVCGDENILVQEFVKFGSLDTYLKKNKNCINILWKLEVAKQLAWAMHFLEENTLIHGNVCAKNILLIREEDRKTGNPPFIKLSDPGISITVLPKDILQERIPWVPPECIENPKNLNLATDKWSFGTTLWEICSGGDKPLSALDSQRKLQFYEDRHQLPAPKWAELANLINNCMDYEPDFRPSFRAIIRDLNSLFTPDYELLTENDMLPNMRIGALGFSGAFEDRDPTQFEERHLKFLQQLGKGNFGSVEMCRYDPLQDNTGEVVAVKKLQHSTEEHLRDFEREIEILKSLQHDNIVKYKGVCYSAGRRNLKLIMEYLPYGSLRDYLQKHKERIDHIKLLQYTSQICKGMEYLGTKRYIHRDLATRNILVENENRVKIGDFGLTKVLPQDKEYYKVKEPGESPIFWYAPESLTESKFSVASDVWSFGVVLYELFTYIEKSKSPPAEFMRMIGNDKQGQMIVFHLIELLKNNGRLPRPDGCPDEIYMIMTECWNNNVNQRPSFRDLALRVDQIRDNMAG
Chain of UniProt Q6PHR2 (whole entry, looked up): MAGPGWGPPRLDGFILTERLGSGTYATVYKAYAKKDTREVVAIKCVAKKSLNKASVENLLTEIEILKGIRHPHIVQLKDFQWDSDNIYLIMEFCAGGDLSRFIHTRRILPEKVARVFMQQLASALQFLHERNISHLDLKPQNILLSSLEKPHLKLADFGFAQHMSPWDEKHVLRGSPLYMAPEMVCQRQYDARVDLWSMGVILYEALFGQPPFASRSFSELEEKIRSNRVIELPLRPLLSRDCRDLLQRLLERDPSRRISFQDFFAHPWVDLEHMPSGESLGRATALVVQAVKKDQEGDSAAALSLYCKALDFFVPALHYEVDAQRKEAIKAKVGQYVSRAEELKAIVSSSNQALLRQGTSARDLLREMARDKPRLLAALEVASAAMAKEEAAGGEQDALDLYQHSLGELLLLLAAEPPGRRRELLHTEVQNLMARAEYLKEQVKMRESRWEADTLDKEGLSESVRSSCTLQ
Chain of UniProt Q96PY6 (whole entry, looked up): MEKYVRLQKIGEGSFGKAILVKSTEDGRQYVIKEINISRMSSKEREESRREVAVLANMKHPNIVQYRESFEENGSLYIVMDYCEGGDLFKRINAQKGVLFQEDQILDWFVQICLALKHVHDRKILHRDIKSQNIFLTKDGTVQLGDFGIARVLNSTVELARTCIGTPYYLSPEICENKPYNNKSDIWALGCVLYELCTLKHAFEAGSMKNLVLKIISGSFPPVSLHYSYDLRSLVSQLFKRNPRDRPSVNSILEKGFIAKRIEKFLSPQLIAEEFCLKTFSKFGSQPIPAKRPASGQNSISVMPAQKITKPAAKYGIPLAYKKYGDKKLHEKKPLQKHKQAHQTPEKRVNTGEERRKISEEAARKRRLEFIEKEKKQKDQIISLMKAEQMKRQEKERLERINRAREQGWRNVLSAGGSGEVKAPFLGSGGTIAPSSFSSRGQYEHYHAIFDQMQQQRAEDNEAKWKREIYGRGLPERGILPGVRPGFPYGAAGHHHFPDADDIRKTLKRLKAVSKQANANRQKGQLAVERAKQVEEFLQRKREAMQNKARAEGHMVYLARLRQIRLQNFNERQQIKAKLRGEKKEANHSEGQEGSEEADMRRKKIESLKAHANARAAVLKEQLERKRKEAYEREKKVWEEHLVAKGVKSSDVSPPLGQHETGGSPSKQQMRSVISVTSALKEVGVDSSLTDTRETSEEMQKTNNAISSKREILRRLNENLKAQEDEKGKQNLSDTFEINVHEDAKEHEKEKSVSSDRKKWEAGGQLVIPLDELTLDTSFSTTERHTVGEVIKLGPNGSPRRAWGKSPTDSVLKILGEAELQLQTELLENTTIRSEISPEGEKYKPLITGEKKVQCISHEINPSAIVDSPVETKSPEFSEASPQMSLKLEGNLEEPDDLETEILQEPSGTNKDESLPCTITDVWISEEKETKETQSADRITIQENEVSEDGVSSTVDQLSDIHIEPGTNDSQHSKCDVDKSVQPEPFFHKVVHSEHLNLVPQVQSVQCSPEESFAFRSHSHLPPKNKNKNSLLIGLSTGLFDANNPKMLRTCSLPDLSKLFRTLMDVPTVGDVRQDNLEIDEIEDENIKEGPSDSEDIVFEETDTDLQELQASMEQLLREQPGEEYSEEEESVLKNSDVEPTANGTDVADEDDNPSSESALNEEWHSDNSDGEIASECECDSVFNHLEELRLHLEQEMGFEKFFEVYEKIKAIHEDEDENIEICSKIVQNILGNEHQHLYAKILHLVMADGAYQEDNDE
Chain of UniProt Q9BUB5 (whole entry, looked up): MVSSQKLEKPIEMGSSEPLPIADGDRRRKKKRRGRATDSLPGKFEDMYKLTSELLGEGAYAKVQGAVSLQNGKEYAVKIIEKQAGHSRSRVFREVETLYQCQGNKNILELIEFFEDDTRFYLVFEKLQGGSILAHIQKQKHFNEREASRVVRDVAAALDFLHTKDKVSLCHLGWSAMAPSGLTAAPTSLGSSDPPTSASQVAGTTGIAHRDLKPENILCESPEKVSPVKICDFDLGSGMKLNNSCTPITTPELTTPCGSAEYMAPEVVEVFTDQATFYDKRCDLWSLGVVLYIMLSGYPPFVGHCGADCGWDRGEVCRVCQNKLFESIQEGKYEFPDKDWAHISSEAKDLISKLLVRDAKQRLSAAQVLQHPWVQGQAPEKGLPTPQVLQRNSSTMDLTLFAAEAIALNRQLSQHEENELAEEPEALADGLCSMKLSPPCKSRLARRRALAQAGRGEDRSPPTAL
Chain of UniProt P30291 (whole entry, looked up): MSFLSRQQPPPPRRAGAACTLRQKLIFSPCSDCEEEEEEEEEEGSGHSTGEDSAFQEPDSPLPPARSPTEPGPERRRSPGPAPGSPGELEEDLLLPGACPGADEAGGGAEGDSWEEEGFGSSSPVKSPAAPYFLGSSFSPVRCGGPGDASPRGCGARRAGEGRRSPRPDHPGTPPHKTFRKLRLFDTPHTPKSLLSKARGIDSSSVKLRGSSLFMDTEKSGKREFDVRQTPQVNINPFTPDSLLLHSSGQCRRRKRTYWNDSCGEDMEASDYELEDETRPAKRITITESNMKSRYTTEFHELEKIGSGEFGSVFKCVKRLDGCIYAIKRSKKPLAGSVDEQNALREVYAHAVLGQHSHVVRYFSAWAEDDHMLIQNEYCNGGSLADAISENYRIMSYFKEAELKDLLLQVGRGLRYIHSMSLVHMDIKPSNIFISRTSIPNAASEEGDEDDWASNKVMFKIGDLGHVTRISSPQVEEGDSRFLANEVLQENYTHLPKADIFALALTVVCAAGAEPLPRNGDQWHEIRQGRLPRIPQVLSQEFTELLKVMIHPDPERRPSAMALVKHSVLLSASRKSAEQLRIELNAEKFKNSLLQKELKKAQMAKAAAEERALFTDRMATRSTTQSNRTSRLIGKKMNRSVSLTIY

Study 1 — cell line: L929; observed: necroptosis protection; method: CCK-8; concentration: 0.078 µM; together with: TNF-α plus zVAD; measurement: viability
CC(C)S(=O)(=O)c1ccc2nccc(Nc3ccc4sc(C5CCCC5)nc4c3)c2c1: 26%
CC(C)S(=O)(=O)c1ccc2nccc(Nc3ccc4scnc4c3)c2c1: 13%
CC[C@H](C)c1nc2cc(Nc3ccnc4ccc(S(=O)(=O)C(C)C)cc34)ccc2s1: 27.1%

Study 2 — SMILES: COc1ccc2c(c1)/C(=C/c1cnc[nH]1)C(=O)N2; observed: enzyme activity; action: inhibitor; concentration: 0.5 µM; relative to: control; measurement: remaining activity
WEE1 (Homo sapiens, UniProt P30291): 94.2%
FRK (Homo sapiens, UniProt P42685): 96.4%
ULK3 (Homo sapiens, UniProt Q6PHR2): 67.9%
GSK3B (Homo sapiens, UniProt P49841): 35.4%
NEK1 (Homo sapiens, UniProt Q96PY6): 84.4%

Study 3 — target: CCND1, cyclin fold, Cln2 fusion (human); method: yeast growth competition, sequencing; medium: yeast; notes: strong parent motif; relative to: not given; direction: higher = stronger binding; measurement: normalised enrichment score
Starting sequence: viral docking peptide; YKVKRRLVFGADD; partner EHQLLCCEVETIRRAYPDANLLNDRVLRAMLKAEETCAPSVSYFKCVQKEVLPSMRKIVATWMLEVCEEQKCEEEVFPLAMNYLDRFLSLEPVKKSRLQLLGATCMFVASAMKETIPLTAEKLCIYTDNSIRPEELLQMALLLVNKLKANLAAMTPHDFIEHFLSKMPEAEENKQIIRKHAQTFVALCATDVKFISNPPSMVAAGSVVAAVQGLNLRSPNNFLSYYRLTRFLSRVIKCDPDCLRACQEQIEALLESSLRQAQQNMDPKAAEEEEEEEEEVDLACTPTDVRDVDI
YKVKRRLVFRADD [G10R]: 0.805
YKVKRRLVFWADD [G10W]: 0.518
YKHKRRLVFGADD [V3H]: 0.175
YKVKRRIVFGADD [L7I]: 1.72
YKSKRRLVFGADD [V3S]: 2.31
YKFKRRLVFGADD [V3F]: 0.734
AKVKRRLVFGADD [Y1A]: 1.24
YKVKRRLSFGADD [V8S]: 4.97

Study 4 — observed: cell-free assay; method: competition with immobilised ligand; concentration: 1 µM; measurement: remaining binding
Structure (SMILES): Cn1cncc1[C@@](O)(COc1ccc(C#N)cc1-c1ccc(OC(F)(F)F)cc1)c1ccc(C#N)cc1
PAK6 (Homo sapiens, UniProt Q9NQU5): 100%
Tyrosine-protein kinase ABL1, phosphorylated (ABL1, Homo sapiens, UniProt P00519, Y253F): 92%
LCK (Homo sapiens, UniProt P06239): 100%
Tyrosine-protein kinase JAK2, JH1 (JAK2, Homo sapiens, UniProt O60674): 65%
MKNK1 (Homo sapiens, UniProt Q9BUB5): 81%

Excerpt of the above (study 4):
LCK (Homo sapiens, UniProt P06239): 100%
PAK6 (Homo sapiens, UniProt Q9NQU5): 100%
Tyrosine-protein kinase JAK2, JH1 (JAK2, Homo sapiens, UniProt O60674): 65%
